Results collected from several papers.
Organism: Pseudomonas aeruginosa

CCn1[c]([Au-][Cl])[n+](CC)c2ccc(C(=O)OC)cc21
MIC (broth dilution; PA7 DSM 24068; 20 h, 37 °C): > 60 µM

CCn1cc(C(=O)NCCNCCO)c(=O)c2cc(OCc3ccc(C(C)(C)C)cc3)c(Cl)cc21
MIC (ATCC 27853; ≥80% growth inhibition): < 0.25 µg/mL

COc1ccc2c(c1CC=C(C)C)O[C@H]1c3cc4c(cc3OC[C@@]21O)OC(C)(C)C=C4
MIC (ATCC 10145): 128 µg/mL

CC(=O)N[C@H](CCCCN)C(=O)N[C@H](CC(C)C)C(=O)N[C@H](CCCCN)C(=O)N[C@H](CO)C(=O)N[C@H](CC(C)C)C(=O)N[C@H](CC(C)C)C(=O)N[C@H](CCCCN)C(=O)N[C@@H](C(=O)N[C@H](CC(C)C)C(=O)N[C@H](CO)C(=O)N[C@H](CCCCN)C(=O)N[C@H](C)C(=O)N[C@H](CCCCN)C(=O)N[C@H](CCCCN)C(=O)N[C@H](CCCCN)C(=O)N[C@H](CC(C)C)C(=O)N[C@H](CC(C)C)C(=O)N[C@H](CCCCN)C(=O)N[C@@H](C(=O)N[C@H](C)C(=O)N[C@H](CC(C)C)C(=O)N[C@H](CCCCN)C(=O)N[C@H](C)C(=O)N[C@H](CC(C)C)C(=O)N[C@H](CO)C(=O)N[C@H](CCCCN)C(N)=O)[C@H](C)O)[C@H](C)O
MIC (broth microdilution; PA14; 24 h, 37 °C): 0.7 µM

COc1ccc2ccc3c(c2c1)C=[N+]1C2CCCCC2[N+]2=Cc4cccc(OC)c4[O][Au-]21[O]3.F[P-](F)(F)(F)(F)F (stereo not shown)
MIC (bacterial growth, broth microdilution; carbapenem-resistant; 24 h): 10 µM

CC(C)C[C@@H](NC(=O)[C@@H](CC(C)C)NC(=O)[C@@H](CCCCN)NC(=O)[C@@H](CCCCNC(=O)[C@@H](CC(C)C)NC(=O)[C@@H](CC(C)C)NC(=O)[C@@H](CCCCNC(=O)[C@@H](CC(C)C)NC(=O)[C@@H](CCCCN)NC(=O)[C@@H](CCCCNC(=O)[C@@H](CC(C)C)NC(=O)[C@H](N)CCCCN)NC(=O)[C@@H](CC(C)C)NC(=O)[C@H](N)CCCCN)NC(=O)[C@@H](CC(C)C)NC(=O)[C@@H](CCCCN)NC(=O)[C@@H](CCCCNC(=O)[C@@H](CC(C)C)NC(=O)[C@H](N)CCCCN)NC(=O)[C@@H](CC(C)C)NC(=O)[C@H](N)CCCCN)NC(=O)[C@@H](CC(C)C)NC(=O)[C@@H](CC(C)C)NC(=O)[C@@H](CCCCNC(=O)[C@@H](CC(C)C)NC(=O)[C@@H](CCCCN)NC(=O)[C@@H](CCCCNC(=O)[C@@H](CC(C)C)NC(=O)[C@H](N)CCCCN)NC(=O)[C@@H](CC(C)C)NC(=O)[C@H](N)CCCCN)NC(=O)[C@@H](CC(C)C)NC(=O)[C@@H](CCCCN)NC(=O)[C@@H](CCCCNC(=O)[C@@H](CC(C)C)NC(=O)[C@H](N)CCCCN)NC(=O)[C@@H](CC(C)C)NC(=O)[C@H](N)CCCCN)C(N)=O
MIC (broth microdilution; PAO1; 37 °C): 4 µg/mL

COc1ccc(-c2ccn(CC[C@](C)(C(=O)NO)S(C)(=O)=O)c(=O)c2)c(F)c1
MIC (PA-1955 MexEF-OprN producing): 2 µg/mL

COc1ccc2ccc3c(c2c1)C=[N+]1C2CCCCC2[N+]2=Cc4cc(C(C)(C)C)ccc4[O][Au-]21[O]3.F[P-](F)(F)(F)(F)F (stereo not shown)
MIC (bacterial growth, broth microdilution; carbapenem-resistant; 24 h): 10 µM

COc1c2c(cc3oc(=O)cc(-c4ccc(Cl)cc4)c13)C(=O)c1cc(C)cc(O)c1C2=O
MIC (microbial growth): 64 µg/mL

CC[C@@H](C)[C@@H](NC(=O)[C@@H](C)NC(=O)[C@@H](CCCCN)NC(=O)[C@@H](CC(C)C)NC(=O)[C@@H](C)NC(=O)[C@H](NC(=O)[C@@H](Cc1c[nH]cn1)NC(=O)[C@@H](CC(C)C)NC(=O)[C@H](NC(=O)[C@H](NC(=O)[C@@H](CCCCN)NC(=O)[C@H](NC(=O)[C@@H](C)NC(=O)[C@@H](CO)NC(=O)[C@@H](CCCCN)NC(=O)[C@@H](Cc1ccccc1)NC(=O)[C@H](NC(=O)[C@@H](CCCCN)NC(=O)[C@@H](CC(C)C)NC(=O)[C@@H](Cc1ccccc1)NC(=O)[C@@H](CO)NC(=O)[C@@H](CCCCN)NC(=O)[C@@H](Cc1c[nH]c2ccccc12)NC(=O)[C@@H](CCCCN)NC(C)=O)[C@H](C)O)C(C)C)[C@H](C)O)C(C)C)[C@H](C)O)C(=O)N[C@H](CO)C(=O)N[C@H](CO)C(N)=O
MIC (broth microdilution; M2; 24 h, 37 °C): 2.6 µM

Repeated from above:
CC[C@@H](C)[C@@H](NC(=O)[C@@H](C)NC(=O)[C@@H](CCCCN)NC(=O)[C@@H](CC(C)C)NC(=O)[C@@H](C)NC(=O)[C@H](NC(=O)[C@@H](Cc1c[nH]cn1)NC(=O)[C@@H](CC(C)C)NC(=O)[C@H](NC(=O)[C@H](NC(=O)[C@@H](CCCCN)NC(=O)[C@H](NC(=O)[C@@H](C)NC(=O)[C@@H](CO)NC(=O)[C@@H](CCCCN)NC(=O)[C@@H](Cc1ccccc1)NC(=O)[C@H](NC(=O)[C@@H](CCCCN)NC(=O)[C@@H](CC(C)C)NC(=O)[C@@H](Cc1ccccc1)NC(=O)[C@@H](CO)NC(=O)[C@@H](CCCCN)NC(=O)[C@@H](Cc1c[nH]c2ccccc12)NC(=O)[C@@H](CCCCN)NC(C)=O)[C@H](C)O)C(C)C)[C@H](C)O)C(C)C)[C@H](C)O)C(=O)N[C@H](CO)C(=O)N[C@H](CO)C(N)=O
MIC (broth microdilution; M2; 24 h, 37 °C): 2.6 µM
